Assay results pooled from the literature.
Compare with care: the assays were run in different laboratories. ± marks the error that the study gave.

`CCOC(=O)C1=C(CN2CCC[C@@H]2C(=O)Nc2ccc(B(O)O)cc2)NC(c2nccs2)=N[C@H]1c1ccc(F)cc1Br` gave an AUC(0-t) of 352 ± 22.6 ng·h/mL (ICR mouse, plasma; oral, 10 mg/kg).
`Cc1cc(NC2Cc3cc(F)c(F)cc3C2)n2nc(C(C)(F)F)nc2n1` has an AUC(0-t) of 124 µM·h (NSG mouse, whole blood; oral, 10 mg/kg).
For `Cc1[nH]c(C)c(S(=O)(=O)Nc2ccc(C(F)(F)F)c(Cl)c2)c1C(=O)N1CCC(F)(F)C1`, the AUC(0-t) was 72700 ng·h/g (mouse, plasma; intraperitoneal, 40 mg/kg).
`C[C@@H]1C[C@H]2[C@@H]3CCC4=CC(=O)C=C[C@]4(C)[C@@]3(F)[C@@H](O)C[C@]2(C)[C@@]1(O)C(=O)CO` gave an AUC(0-t) of 23.2 ± 5.14 ng·h/mL (DBA/1J mouse, male, plasma; intravenous, 1 mg/kg).
The AUC(0-t) of `c1csc(CNc2cc[nH]n2)c1` is reported as 24.4 µM·h (male CD-1 mouse, plasma; oral, 20 mg/kg, hydrochloride salt).
`Cc1cc(N[C@H]2CCc3ccc(Cl)cc3C2)n2nc(C(C)(F)F)nc2n1` gave an AUC(0-t) of 4.1 µM·h (NSG mouse, whole blood; oral, 10 mg/kg).
`CN1CCC[C@H](CN2c3ccccc3Sc3ccccc32)C1.Cl` gave an AUC(0-t) of 5420 ng·h/mL (ICR mouse female fasted, skin; oral, 16 mg/kg).
`O=c1c2cc(Cl)c(CO)cc2[nH]c(=S)n1Cc1cccnc1` has an AUC(0-t) of 140 ng·h/mL (mouse; oral, 50 mg/kg).
With `O=[N+]([O-])c1ccc(-c2ccc(O)cc2)c2cccnc12` the AUC(0-t) was 30.2 ng·h/mL (male ICR mouse, plasma; oral, 5 mg/kg).

Excerpt of the above:
For `Cc1[nH]c(C)c(S(=O)(=O)Nc2ccc(C(F)(F)F)c(Cl)c2)c1C(=O)N1CCC(F)(F)C1`, the AUC(0-t) was 72700 ng·h/g (mouse, plasma; intraperitoneal, 40 mg/kg).
